Measured values of several laboratories.
Compare with care: the assays were run in different laboratories. Values joined by “and” are separate records of one study, mostly repeats; a detail may differ. ± marks the error that the study gave.

CC(C)NCC(O)c1ccc(O)c(O)c1 (centres unmarked)  sarcomere length (ventricular cardiomyocytes, C57BL/6 mouse; dose not given, 0.152 s): 1.56 µm
Cc1noc(C)c1-c1ccc2nc(-c3cnn(CC(C)(C)O)c3)nc(N3CCOC[C@@H]3c3ccccc3)c2c1  cytokine production (refers to: TNFα, MCP-1, IP-10, IL-6, IL-2, IL-1β; mouse collagen-induced arthritis, right rear paw; dose not given; reference: vehicle): decreased
c1ccc(-c2n[nH]cc2-c2ccnc3ccccc23)nc1  log2 fold change (kinase binding, competitor, MIB/MS competition, refers to: CAK1; Candida albicans cell lysate; 100 nM; reference: DMSO): 1.3
O=C(OC(C(F)(F)F)C(F)(F)F)N1CCN(Cc2cccc(Oc3ccccc3)c2)CC1  k4 (PET blocking study; rhesus monkey, brain CB; 0.03 mg/kg, compound pretreatment, added: [18F]T-401 tracer): 0.0508 min⁻¹
Cc1cc(NS(=O)(=O)c2ccc(N=NN(O)c3ccccc3)cc2)no1  paw edema volume (carrageenan-induced paw edema; Wistar rat; oral, 100 mg/kg, 3 h after carrageenan, added: carrageenan 1% subplantar; higher = more edema): 4.41 ± 0.93 a.u.
COc1c(C)cnc(Cn2cc(C#CCCOP(=O)(O)O)c3c(Cl)nc(N)nc32)c1C  serum HER-2 ECD decrease (refers to: HER-2 extracellular domain; human patients, serum; 48 mg/m^2): < 20 % below baseline
C[C@H]1C[C@H]2CSC(N)=N[C@@]2(c2nc(NC(=O)c3ccc(OC(F)F)cn3)cs2)CO1  percent change from baseline (refers to: Aβx-40; healthy adults, plasma; 50 mg once daily, day 7; reference: placebo): -61.9%
C[C@@H](NC(=O)N1C(=O)[C@H](Cc2ccnc(N)c2)[C@H]1C(=O)O)C1CCCCC1  aPTT Emax (human; iv infusion, 0.6 mg/kg/h, 24 h): 48.5 s
N#CC[C@H](C1CCCC1)n1cc(-c2ncnc3[nH]ccc23)cn1  inhibition range (phosphoflow cytometry, refers to: pS6; patient plasma; concentration not given, C1D15 steady-state trough): -55.5 to 85.7%
COc1cc(O)c(CC=C(C)C)c(O)c1C(=O)/C=C/c1ccc(O)cc1  high-fat diet-induced weight gain (male Tac:SW mice, conventional and germ-free; in high-fat diet, 60 mg/kg/day, 10 weeks; reference: high-fat diet alone): no effect
Cn1cc([C@H]2C[C@H]3CSC(N)=N[C@@]3(c3ccc(F)cc3F)CO2)cn1  Aβ42 level (refers to: Aβx-42; Mus musculus wild-type, brain; subcutaneous, 10 mg/kg, 13 h): 0.59 ng/g
NC/C(=C\F)COc1cccc(Cn2c(=S)[nH]c(=O)c3[nH]cnc32)c1  total white blood cell count (mouse, carrageenan air pouch, air pouch exudate; 3 mg/kg, 12 h): 5.3e+07 and 8.8e+07 and 5.7e+07 and 3.3e+07 and 7.9e+07
CCCN(O)N=Nc1ccc(S(=O)(=O)Nc2cc(C)on2)cc1  paw edema volume (carrageenan-induced paw edema; Wistar rat; oral, 100 mg/kg, 4 h after carrageenan, added: carrageenan 1% subplantar; higher = more edema): 4.25 ± 0.46 a.u.
CC(C)[C@H](C(=O)Nc1ccc(C(=O)NO)cc1)c1ccccc1  tumour volume (volumetric MRI; human, left internal auditory canal tumour; dose not given, 51 days): 2.1 cm³
CN(CCOc1ccc(CC2SC(=O)NC2=O)cc1)c1ccccn1 (racemic)  VCO2 (indirect calorimetry; lean mice; dose not given, average over 72 h, end of treatment): 75.4 ± 6.14 mL/min/kg
Cc1cnc(Nc2ccc(OCCOc3ccc(/N=N/c4ccc(C(=O)NCCC(=O)O)cc4)cc3C(=O)O)cc2)nc1Nc1cccc(S(=O)(=O)NC(C)(C)C)c1  colon length difference (mice, DSS-induced colitis; 10 mg/kg, day 5, unit not given; reference: DSS alone): -12.8
Cc1n[nH]c2ccc(-c3cc(OC[C@@H](N)Cc4ccccc4)cnc3-c3ccoc3)cc12  log2 fold change (kinase binding, competitor, MIB/MS competition, refers to: CKA1; Candida albicans cell lysate; 10 µM; reference: DMSO): -2.47
COc1ccc(F)cc1C(=O)NCc1ccc(-c2nn([C@@H](C)C(F)(F)F)c(N)c2C(N)=O)cc1  overall response rate (CLL/SLL patients; dose not given, prior BTKi stopped for progression): 67%
CCN(O)N=Nc1ccc(S(=O)(=O)Nc2onc(C)c2C)cc1  paw edema volume (carrageenan-induced paw edema; Wistar rat; oral, 100 mg/kg, 3 h after carrageenan, added: carrageenan 1% subplantar; higher = more edema): 5.21 ± 0.63 a.u.
OC(CCN1CCCCC1)(c1ccccc1)C1CC2C=CC1C2 (centres unmarked)  change in EEG Alpha1-power Pz-O1 (resting-state EEG; healthy elderly humans; oral, 4 mg, eyes open, LS mean; reference: baseline): -21.6%
Cc1ccc(N(O)N=Nc2ccc(S(=O)(=O)Nc3onc(C)c3C)cc2)cc1  paw edema volume (carrageenan-induced paw edema; Wistar rat; oral, 100 mg/kg, 1 h after carrageenan, added: carrageenan 1% subplantar; higher = more edema): 6.14 ± 0.84 a.u.
CC1(C)CCC(c2ccc(Cl)cc2)=C(CN2CCN(c3ccc(C(=O)NS(=O)(=O)c4ccc(N[C@H](CCN5CCOCC5)CSc5ccccc5)c(S(=O)(=O)C(F)(F)F)c4)cc3)CC2)C1  EC50 (cell killing; canine lymph node CD21+ B cells, dog 34; 24 h): 0.063 µM
Cc1ccc(C(=O)Nc2ccnc(S(N)(=O)=O)c2)c(N2CCCC(F)(F)CC2)n1  capsaicin-induced flare area (laser speckle imaging; rhesus macaque; intravenous, dose not given, 10 min after dosing; reference: vehicle): decreased
NC(=O)c1cnc2[nH]ccc2c1N[C@@H]1[C@@H]2CC3C[C@H]1C[C@@](O)(C3)C2  percent change (total naive T cells, flow cytometry; Japanese humans, peripheral blood; 20 mg single dose; reference: baseline): 0.5%
CCN(O)N=Nc1ccc(S(=O)(=O)Nc2nccs2)cc1  paw edema volume (carrageenan-induced paw edema; Wistar rat; oral, 100 mg/kg, 1 h after carrageenan, added: carrageenan 1% subplantar; higher = more edema): 6.31 ± 0.76 a.u.
Oc1ccc(N=Nc2ccc(-c3nc4ccccc4s3)cc2)cc1CN(Cc1ccccc1)Cc1ccccn1  TEAC (ABTS radical scavenging; unit not given; reference: Trolox): > 2
CSCCNc1nc(SCCC(F)(F)F)nc2c1ncn2[C@@H]1O[C@H](COP(=O)(O)OP(=O)(O)C(Cl)(Cl)P(=O)(O)O)[C@@H](O)[C@H]1O  patients with IPA above threshold (platelet aggregation, light transmittance aggregometry; human, platelet-rich plasma; dose not given, 4 to 6 h, IPA above 90 %, added: ADP 20 µM; reference: patients): 0%
COc1nc(NCc2cn(-c3ccc(C(=O)Nc4ccc(C)cc4)cc3)nn2)nc(OC)n1  IC50 (cell viability, MTT; normal colonocytes, rat; 72 h): 0.143 ± 0.00297 µM
Cc1nn(-c2nc3c(F)cc(F)cc3s2)c(O)c1C(c1ccc(C(F)(F)F)cc1)c1c(C)nn(-c2nc3c(F)cc(F)cc3s2)c1O  total histology score (mouse, cerulein-induced acute pancreatitis; 25 mg/kg; direction not given): 0.333 and 2.33 and 4 and 1.67 and 2
O=C(O)CNC(=O)Cc1ccccc1  sarcomere length (ventricular cardiomyocytes, C57BL/6 mouse; dose not given, 0.728 s): 1.72 µm
COc1ccc(C2=N[C@@H](c3ccc(Cl)cc3)[C@@H](c3ccc(Cl)cc3)N2C(=O)N2CCNC(=O)C2)c(OC(C)C)c1  centrally nucleated fibres (histology; Dmd C3333Y mice, tibialis anterior; dose not given): 97% and 85% and 90% and 78% and 86%
N#Cc1ccn2c(-c3ccncc3)c(-c3ccc(F)cc3)nc2c1  log2 fold change (kinase binding, competitor, MIB/MS competition, refers to: CDC7; Candida albicans cell lysate; 100 nM; reference: DMSO): 0.173
C[C@H]1O[C@@H](O[C@H]2CC[C@@]3(C)[C@@H](CC[C@]4(C)[C@@H]3C=C[C@]35OC[C@@]6(CCC(C)(C)C[C@H]63)[C@@H](O)C[C@]54C)[C@]2(C)CO)[C@H](O)[C@@H](O[C@@H]2O[C@H](CO)[C@@H](O)[C@H](O)[C@H]2O)[C@H]1O  protein level (Western blot, refers to: caspase3; chronic-plus-binge ethanol-fed mice, liver; dose not given, low dose, unit not given; reference: β-actin): 1.01 and 1.03 and 1.24
NC(=NCCC[C@@H](C(=O)NCc1ccccc1)n1cc(-c2ccc(-c3ccccc3)cc2)nn1)c1ccc([N+](=O)[O-])o1  IFN-beta mRNA level (STING signalling, inhibitor, qPCR; iBMDM, mouse; dose not given, 2 h, added: diABZI 500 nM): inhibited
Cc1cc(F)cc2c(CCC(=O)N[C@@H]3C(=O)NC[C@H]3O)c(-c3ccc(F)cc3)[nH]c12  UACR (mice, APOL1 G2, single copy; day 5, before treatment, added: IFNγ plasmid injection): 983 µg/mg and 361 µg/mg and 710 µg/mg and 911 µg/mg and 531 µg/mg
Cc1ccc(N(O)N=Nc2ccc(S(=O)(=O)Nc3cc(C)on3)cc2)cc1  paw edema volume (carrageenan-induced paw edema; Wistar rat; oral, 100 mg/kg, 3 h after carrageenan, added: carrageenan 1% subplantar; higher = more edema): 4.21 ± 0.67 a.u.
N=C(N)NCCC[C@H](NC(=O)[C@H](CCCNC(=N)N)NC(=O)[C@H](CCCCN)NC(=O)[C@H](CCC(N)=O)NC(=O)[C@H](CCCCN)NC(=O)[C@H](Cc1ccc(O)cc1)NC(=O)[C@@H](N)CCCCN)C(=O)N[C@@H](CO)C(=O)N[C@@H](Cc1ccc(O)cc1)C(=O)N[C@@H](CCCCN)C(=O)O  median VAS change (dentin hypersensitivity patients aged ≥sample A years; 10 µg/tooth, day 36, unit not given; reference: baseline): -26
CCCCCCCCCCCCCCCC(=O)NCCOC(=O)C[C@@H](CN)CC(C)C  time to peak efficacy (mechanical withdrawal threshold; mouse paclitaxel neuropathic pain; oral, dose not given): 120 min
